Assay results from different studies.
Lines come from different studies, so protocols differ. “And” joins repeats or separate records; there may be more than shown. In brackets after ≈: the same amount, converted by molar mass.

CN1CCC(C(=O)Nc2n[nH]c3nc(-c4ccc(O)cc4)c(Br)cc23)CC1 has an EC50 of 0.251 µM (Trypanosoma brucei; parasite growth).
CC[C@H]1OC(=O)[C@H](C)[C@@H](O[C@H]2C[C@@](C)(OC)[C@@H](O)[C@H](C)O2)[C@H](C)[C@@H](O[C@@H]2O[C@H](C)C[C@H](N(C)C)[C@H]2O)[C@](C)(O)C[C@@H](C)/C(=N\OCOCCOC)[C@H](C)[C@@H](O)[C@]1(C)O has an MIC90 of 2 µg/mL (≈ 2.39 µM) (Streptococcus viridans; microbial growth; clinical isolate).
With Cc1cc(C)c(C#N)c(SCC(=O)c2ccncc2)n1 the EC50 was greater than 64 µM (Trypanosoma brucei; parasite growth, resazurin).
The EC50 of COc1ccc2[nH]c3c4[nH]c5ccc(OC)cc5c4c4c(c3c2c1)C(=O)NC4=O is reported as 0.631 µM (Trypanosoma brucei; parasite growth).
CCCN(c1ccc(F)cc1)c1c(-c2ccccn2)nc2ccccn12 gave an IC50 of 0.67 µM and 1.7 µM (Leishmania infantum; parasite growth; intracellular, amastigote).
For C=C/C=C(\C)CC[C@@H]1C[C@@H](O)CC(=O)O1, the MIC was 128 µg/mL (≈ 609 µM) (Salmonella enterica; microbial growth, broth dilution; ATCC14028 TYPHIMURIUM).
O=C(O)CN1C(=O)/C(=C/c2ccc(-c3ccc(N(c4ccccc4)c4ccccc4)cc3)cc2)NC1=S has an MBC of 125 µg/mL (≈ 247 µM) (Streptococcus pyogenes; microbial killing, broth dilution; ATCC19615).
With C[C@H]1O[C@H](C[C@@H]2OC[C@@]3(C)[C@@H]4CC[C@]5(C)[C@H](CC=C6[C@@H]7CC(C)(C)CC[C@]7(C(=O)O)CC[C@]65C)[C@@]4(C)CC[C@@H]3O2)[C@H](O)[C@@H](O)[C@@H]1O the inhibition was 100% (Leishmania mexicana; parasite growth, resazurin; 50 µM, amastigote).
The MIC90 of CN[C@H](CC(C)C)C(=O)N[C@H]1C(=O)N[C@@H](CC(N)=O)C(=O)N[C@H]2C(=O)N[C@H]3C(=O)N[C@H](C(=O)N[C@H](C(=O)O)c4cc(O)cc(O)c4-c4cc3ccc4O)[C@H](O)c3ccc(c(Cl)c3)Oc3cc2cc(c3O[C@@H]2O[C@H](CO)[C@@H](O)[C@H](O)[C@H]2O[C@H]2C[C@](C)(N)[C@H](O)[C@H](C)O2)Oc2ccc(cc2Cl)[C@H]1O is reported as 0.5 µg/mL (≈ 0.345 µM) (Streptococcus viridans; microbial growth; clinical isolate).
CC(C)[C@@H]1NC(=O)[C@@H](CCCNC(=N)N)NC(=O)[C@H]([C@@H](C)O)NC(=O)[C@@H](CN)NC(=O)[C@H](Cc2ccccc2)NC(=O)[C@@H](Cc2ccccc2)NC1=O gave an IC90 of greater than 20 µM (Balamuthia mandrillaris; parasite growth, ATP luminescence).
With CC1(C)CC[C@]2(NC(=O)N3CCC[C@H]3C(=O)O)CC[C@]3(C)C(=CC[C@@H]4[C@@]5(C)CC[C@@H]6OC(C)(C)OC[C@@]6(C)[C@@H]5CC[C@]43C)[C@@H]2C1 the inhibition was 96% (Leishmania mexicana; parasite growth, resazurin; 50 µM, amastigote).
With CCc1ccc(C(=O)CSc2nc(C)cc(C)c2C#N)cc1 the EC50 was greater than 64 µM (Leishmania infantum; parasite growth; mouse Macrophage; intracellular, amastigote).
CCCCN(Cc1c(-c2ccccn2)nc2ccc(C)cn12)c1ccc(F)cc1 has an EC50 of 10 µM (Leishmania infantum; parasite growth; intracellular, amastigote).
For Oc1cc(O)c2c(c1)O[C@H](c1cc(O)c(O)c(O)c1)[C@@H](O)C2, the inhibition zone was 12.5 mm (Streptococcus mutans; microbial growth, disc diffusion; 500 µg/disc).
COc1cc(OC)cc(-c2c(-c3ccccn3)nc3n2CCC3)c1 has an IC50 of 0.67 µM and 1.64 µM (Leishmania infantum; parasite growth; intracellular, amastigote).
With O=C1O[C@H]2[C@@H]3OC(=O)c4cc(O)c(O)c(O)c4-c4c(O)c(O)c5oc(=O)c6c(c(O)c(O)c7oc(=O)c4c5c76)-c4c(cc(O)c(O)c4O)C(=O)OC[C@H]3OC(O)[C@@H]2OC(=O)c2cc(O)c(O)c(O)c2-c2c1cc(O)c(O)c2O (mixture of isomers) the inhibition zone was 18.5 mm (Streptococcus mutans; microbial growth, disc diffusion; 500 µg/disc).
With CCn1c(-c2nonc2N)nc2c(C#CC(C)(C)O)nc(OC[C@H](N)c3ccccc3)cc21 the EC50 was 3.16 µM (Trypanosoma brucei; parasite growth).
With COc1ccnc(-c2nc3ccc(OC)cn3c2Nc2ccc(F)cc2)c1 the IC50 was 0.79 µM and 2.16 µM (Leishmania infantum; parasite growth; intracellular, amastigote).
The inhibition of O=c1cc(-c2ccc(O)c(O)c2)oc2cc(O)cc(O)c12 is reported as 58.1% (Helicobacter pylori; microbial growth, broth dilution; 0.48 µg/mL).
CC(C)[C@@H]1NC(=O)[C@@H](CCCNC(=N)N)NC(=O)[C@H](C)NC(=O)[C@@H](CCCN)NC(=O)[C@H](Cc2ccccc2)NC(=O)[C@@H](Cc2ccccc2)NC1=O has an IC90 of 10.9 µM (Balamuthia mandrillaris; parasite growth, ATP luminescence).
For C#CCOC(=O)[C@]12CCC(C)(C)C[C@H]1C1=CC[C@@H]3[C@@]4(C)CC[C@H](O)[C@@](C)(CO)[C@@H]4CC[C@@]3(C)[C@]1(C)CC2, the inhibition was 98.7% (Leishmania mexicana; parasite growth, resazurin; 50 µM, amastigote).
Cc1[nH]c(C(=O)Nc2ccc(C(=O)NCC(=O)O)cc2N2CC[C@@H](NC(=O)OC(C)(C)C)C2)c(Cl)c1Cl gave an MIC of greater than 32 µg/mL (Klebsiella aerogenes; microbial growth, broth dilution; ATCC13408).
With CC[C@H]1OC(=O)[C@H](C)[C@@H](O[C@H]2C[C@@](C)(OC)[C@@H](O)[C@H](C)O2)[C@H](C)[C@@H](O[C@@H]2O[C@H](C)C[C@H](N(C)C)[C@H]2O)[C@](C)(OC)C[C@@H](C)C(=O)[C@H](C)[C@@H](O)[C@]1(C)O the inhibition was 100% (Helicobacter pylori; microbial growth, broth dilution; 3.9 µg/mL).
With C[S+]([O-])c1ccc(-c2c(-c3ccccn3)nc3n2CCC3)cc1 (stereo not shown) the IC50 was 33.2 µM and 12.7 µM (Leishmania infantum; parasite growth; intracellular, amastigote).
For O=c1cc(-c2ccc(O)cc2)oc2cc(O)cc(O)c12, the inhibition was 100% (Helicobacter pylori; microbial growth, broth dilution; 15.63 µg/mL).
Cc1cc(C)c(C#N)c(SC2COc3ccccc3C2=O)n1 (stereo not shown) gave an EC50 of 37.3 µM (Leishmania infantum; parasite growth; mouse Macrophage; intracellular, amastigote).
COc1ccc(-c2cc(=O)c3c(O)cc(O[C@@H]4O[C@H](CO)[C@@H](O)[C@H](O)[C@H]4O)cc3o2)cc1O has an inhibition of 49.3% (Helicobacter pylori; microbial growth, broth dilution; 0.24 µg/mL).
The EC50 of COc1cc2c(cc1Nc1nc(Nc3ccsc3C(N)=O)c3cc[nH]c3n1)N(C(=O)CN(C)C)CCC2(C)C is reported as 0.251 µM (Trypanosoma brucei; parasite growth).
For C[C@@H]1NC(=O)[C@@H](CCCNC(=N)N)NC(=O)[C@H]([C@@H](C)O)NC(=O)[C@@H](CCCN)NC(=O)[C@H](Cc2ccccc2)NC(=O)[C@@H](Cc2ccccc2)NC1=O, the IC90 was greater than 20 µM (Balamuthia mandrillaris; parasite growth, ATP luminescence).
Fc1ccc(Nc2c(-c3ccccn3)nc3sccn23)cc1 gave an IC50 of 32.5 µM (Leishmania infantum; parasite growth; intracellular, amastigote).
COC(=O)c1ccc(O)cc1 gave an inhibition of 100% (Helicobacter pylori; microbial growth, broth dilution; 7.81 µg/mL).
For CC1(C)CC[C@]2(C(=O)O)CC[C@]3(C)C(=CC[C@@H]4[C@@]5(C)CC[C@@H]6O[C@H]([C@H](O)[C@@H](O)[C@H](O)CO)OC[C@@]6(C)[C@@H]5CC[C@]43C)[C@@H]2C1, the inhibition was 98.9% (Leishmania mexicana; parasite growth, resazurin; 50 µM, amastigote).
The EC50 of Cc1cc(C)c(C#N)c(SC(C)C(=O)c2ccccc2)n1 (stereo not shown) is reported as greater than 64 µM (Trypanosoma brucei; parasite growth, resazurin; RHODESIENSE).
For CCOP(=O)(OCC)OC[C@@]1(C)[C@@H]2CC[C@]3(C)[C@H](CC=C4[C@@H]5CC(C)(C)CC[C@]5(NC(=O)N5CCOCC5)CC[C@]43C)[C@@]2(C)CC[C@@H]1O, the inhibition was 97.9% (Leishmania mexicana; parasite growth, resazurin; 50 µM, amastigote).
CCCN1CCC=C(c2ccc(Nc3nc(Nc4ccccc4C(N)=O)c4cc[nH]c4n3)c(C)c2)C1 gave an EC50 of 0.398 µM (Trypanosoma brucei; parasite growth).
N#Cc1cccnc1SCC(=O)c1ccc(F)cc1 has an EC50 of 40.7 µM (Leishmania infantum; parasite growth; mouse Macrophage; intracellular, amastigote).
The inhibition zone of CN(Cc1ccc(C2(C(F)(F)F)CC2)cc1)Cc1cccc2ccccc12 is reported as 0 mm (Trichophyton mentagrophytes; microbial growth, disc diffusion; ATCC18748; 0.0005 µg/mL, 72 h).
The inhibition of CCOC(=O)[C@]12CCC(C)(C)C[C@H]1C1=CC[C@@H]3[C@@]4(C)CC[C@H](O)[C@@](C)(CO)[C@@H]4CC[C@@]3(C)[C@]1(C)CC2 is reported as 100% (Leishmania mexicana; parasite growth, resazurin; 50 µM, amastigote).
CN(Cc1ccc(C(C)(C)C)cc1)Cc1cccc2ccccc12 has an inhibition zone of 50 mm (Trichophyton mentagrophytes; microbial growth, disc diffusion; ATCC18748; 0.016 µg/mL, 72 h).
For COc1cc([C@H]2OC[C@H]3[C@@H]2CO[C@@H]3c2cc(OC)c(O)c(OC)c2)cc(OC)c1O, the inhibition was 100% (Helicobacter pylori; microbial growth, broth dilution; 62.5 µg/mL).
N#Cc1cccc(Nc2nccc(-c3cnn4ncccc34)n2)c1 has an EC50 of 0.00794 µM (Trypanosoma brucei; parasite growth).
Cc1cc(C)c(C#N)c(SCC(=O)c2cccs2)n1 has an EC50 of greater than 64 µM (Leishmania infantum; parasite growth; mouse Macrophage; intracellular, amastigote).
With CC(C)[C@@H]1NC(=O)[C@@H](C)NC(=O)[C@H]([C@@H](C)O)NC(=O)[C@@H](CCCN)NC(=O)[C@H](Cc2ccccc2)NC(=O)[C@@H](Cc2ccccc2)NC1=O the IC90 was greater than 20 µM (Balamuthia mandrillaris; parasite growth, ATP luminescence).
The IC50 of CC(C)(C)[Si](C)(C)OCCN(c1ccc(F)cc1)c1c(-c2ccccn2)nc2ccccn12 is reported as 2.07 µM (Leishmania infantum; parasite growth; intracellular, amastigote).
The inhibition of CC1(C)CC[C@]2(C(=O)O)CC[C@]3(C)C(=CC[C@@H]4[C@@]5(C)CC[C@@H]6O[C@H](C[C@H]7O[C@H](CO)[C@H](O)[C@H](O)[C@H]7O)OC[C@@]6(C)[C@@H]5CC[C@]43C)[C@@H]2C1 is reported as 98.1% (Leishmania mexicana; parasite growth, resazurin; 50 µM, amastigote).
The EC50 of COc1ccc(C(=O)CSc2nc(C)cc(C)c2C#N)cc1 is reported as 60.5 µM (Trypanosoma brucei; parasite growth, resazurin; RHODESIENSE).
COc1cc(-c2cc(=O)c3c(O)cc(O)cc3o2)ccc1O gave an inhibition of 16.1% (Helicobacter pylori; microbial growth, broth dilution; 0.48 µg/mL).
CC1(C)CC[C@]2(C(=O)OCc3ccccc3)CC[C@]3(C)C(=CC[C@@H]4[C@@]5(C)CC[C@H](O)[C@@](C)(CO)[C@@H]5CC[C@]43C)[C@@H]2C1 gave an inhibition of 95.4% (Leishmania mexicana; parasite growth, resazurin; 50 µM, amastigote).
CC(=O)Oc1ccccc1C(=O)CSc1nc(C)cc(C)c1C#N gave an EC50 of greater than 64 µM (Leishmania infantum; parasite growth; mouse Macrophage; intracellular, amastigote).

For quick reference, copied from above:
For COc1cc([C@H]2OC[C@H]3[C@@H]2CO[C@@H]3c2cc(OC)c(O)c(OC)c2)cc(OC)c1O, the inhibition was 100% (Helicobacter pylori; microbial growth, broth dilution; 62.5 µg/mL).
For C[C@@H]1NC(=O)[C@@H](CCCNC(=N)N)NC(=O)[C@H]([C@@H](C)O)NC(=O)[C@@H](CCCN)NC(=O)[C@H](Cc2ccccc2)NC(=O)[C@@H](Cc2ccccc2)NC1=O, the IC90 was greater than 20 µM (Balamuthia mandrillaris; parasite growth, ATP luminescence).
The MIC90 of CN[C@H](CC(C)C)C(=O)N[C@H]1C(=O)N[C@@H](CC(N)=O)C(=O)N[C@H]2C(=O)N[C@H]3C(=O)N[C@H](C(=O)N[C@H](C(=O)O)c4cc(O)cc(O)c4-c4cc3ccc4O)[C@H](O)c3ccc(c(Cl)c3)Oc3cc2cc(c3O[C@@H]2O[C@H](CO)[C@@H](O)[C@H](O)[C@H]2O[C@H]2C[C@](C)(N)[C@H](O)[C@H](C)O2)Oc2ccc(cc2Cl)[C@H]1O is reported as 0.5 µg/mL (≈ 0.345 µM) (Streptococcus viridans; microbial growth; clinical isolate).
COc1ccc(-c2cc(=O)c3c(O)cc(O[C@@H]4O[C@H](CO)[C@@H](O)[C@H](O)[C@H]4O)cc3o2)cc1O has an inhibition of 49.3% (Helicobacter pylori; microbial growth, broth dilution; 0.24 µg/mL).
CC1(C)CC[C@]2(C(=O)OCc3ccccc3)CC[C@]3(C)C(=CC[C@@H]4[C@@]5(C)CC[C@H](O)[C@@](C)(CO)[C@@H]5CC[C@]43C)[C@@H]2C1 gave an inhibition of 95.4% (Leishmania mexicana; parasite growth, resazurin; 50 µM, amastigote).
The EC50 of COc1cc2c(cc1Nc1nc(Nc3ccsc3C(N)=O)c3cc[nH]c3n1)N(C(=O)CN(C)C)CCC2(C)C is reported as 0.251 µM (Trypanosoma brucei; parasite growth).
CC(C)[C@@H]1NC(=O)[C@@H](CCCNC(=N)N)NC(=O)[C@H](C)NC(=O)[C@@H](CCCN)NC(=O)[C@H](Cc2ccccc2)NC(=O)[C@@H](Cc2ccccc2)NC1=O has an IC90 of 10.9 µM (Balamuthia mandrillaris; parasite growth, ATP luminescence).
With COc1ccnc(-c2nc3ccc(OC)cn3c2Nc2ccc(F)cc2)c1 the IC50 was 0.79 µM and 2.16 µM (Leishmania infantum; parasite growth; intracellular, amastigote).
